Results collected from several papers.
Numbered parts are unrelated; each lists some results of a single study.
Chain of UniProt P10721 (whole entry, unmodified, looked up): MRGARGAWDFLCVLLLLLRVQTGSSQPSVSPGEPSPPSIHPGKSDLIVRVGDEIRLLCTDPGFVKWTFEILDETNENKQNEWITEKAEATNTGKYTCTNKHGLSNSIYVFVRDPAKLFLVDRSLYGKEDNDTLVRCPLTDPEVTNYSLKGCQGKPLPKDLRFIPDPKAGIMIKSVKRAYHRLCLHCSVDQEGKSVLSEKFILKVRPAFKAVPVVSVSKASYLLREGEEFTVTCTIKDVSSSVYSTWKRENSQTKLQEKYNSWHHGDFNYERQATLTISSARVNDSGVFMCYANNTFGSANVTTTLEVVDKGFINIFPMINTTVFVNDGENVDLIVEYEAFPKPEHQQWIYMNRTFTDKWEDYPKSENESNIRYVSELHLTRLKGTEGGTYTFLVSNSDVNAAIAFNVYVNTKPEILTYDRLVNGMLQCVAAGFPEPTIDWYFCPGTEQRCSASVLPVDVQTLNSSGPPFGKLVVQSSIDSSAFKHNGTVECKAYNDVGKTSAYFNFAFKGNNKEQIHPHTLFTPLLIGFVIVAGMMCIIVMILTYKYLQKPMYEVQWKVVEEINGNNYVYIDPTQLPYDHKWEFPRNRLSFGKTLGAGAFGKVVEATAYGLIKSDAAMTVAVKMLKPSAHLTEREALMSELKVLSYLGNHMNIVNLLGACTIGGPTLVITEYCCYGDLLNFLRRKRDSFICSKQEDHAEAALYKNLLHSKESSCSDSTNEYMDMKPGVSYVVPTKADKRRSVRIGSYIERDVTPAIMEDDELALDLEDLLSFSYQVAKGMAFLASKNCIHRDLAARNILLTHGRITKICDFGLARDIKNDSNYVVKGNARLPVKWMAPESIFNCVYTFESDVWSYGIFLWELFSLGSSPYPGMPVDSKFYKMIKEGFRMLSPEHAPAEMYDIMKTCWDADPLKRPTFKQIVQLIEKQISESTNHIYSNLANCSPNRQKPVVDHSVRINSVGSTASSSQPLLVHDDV
Chain of UniProt Q16659 (whole entry, looked up): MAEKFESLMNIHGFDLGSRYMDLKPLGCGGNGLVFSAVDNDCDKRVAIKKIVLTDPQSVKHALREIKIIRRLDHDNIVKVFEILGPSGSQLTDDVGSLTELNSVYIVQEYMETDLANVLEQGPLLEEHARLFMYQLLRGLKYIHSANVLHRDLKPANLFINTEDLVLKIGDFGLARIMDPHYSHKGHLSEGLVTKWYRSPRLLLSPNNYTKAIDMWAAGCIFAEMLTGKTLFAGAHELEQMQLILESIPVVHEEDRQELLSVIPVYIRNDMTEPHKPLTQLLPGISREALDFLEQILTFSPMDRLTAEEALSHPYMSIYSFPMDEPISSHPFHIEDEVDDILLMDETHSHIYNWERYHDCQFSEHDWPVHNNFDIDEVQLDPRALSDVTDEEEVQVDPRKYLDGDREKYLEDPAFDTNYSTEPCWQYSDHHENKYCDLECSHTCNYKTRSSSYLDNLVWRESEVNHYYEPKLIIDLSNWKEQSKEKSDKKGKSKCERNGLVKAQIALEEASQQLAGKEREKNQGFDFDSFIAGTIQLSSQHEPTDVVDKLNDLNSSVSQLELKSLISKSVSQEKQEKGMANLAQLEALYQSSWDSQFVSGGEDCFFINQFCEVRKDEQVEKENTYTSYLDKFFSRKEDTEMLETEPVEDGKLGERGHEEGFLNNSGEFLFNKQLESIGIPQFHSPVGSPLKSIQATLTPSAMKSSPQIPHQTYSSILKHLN
Chain of UniProt P46734 (whole entry, looked up): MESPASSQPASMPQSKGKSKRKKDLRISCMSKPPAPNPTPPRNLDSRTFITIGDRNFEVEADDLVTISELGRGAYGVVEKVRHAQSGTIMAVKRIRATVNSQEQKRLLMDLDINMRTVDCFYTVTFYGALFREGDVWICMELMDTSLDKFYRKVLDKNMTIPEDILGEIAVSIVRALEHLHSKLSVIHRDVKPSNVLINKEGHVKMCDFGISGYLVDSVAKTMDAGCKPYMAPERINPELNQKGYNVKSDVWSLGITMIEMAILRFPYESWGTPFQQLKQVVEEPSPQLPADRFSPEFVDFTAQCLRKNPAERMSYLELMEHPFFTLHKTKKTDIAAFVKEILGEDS
Chain of UniProt Q15746 (whole entry, looked up): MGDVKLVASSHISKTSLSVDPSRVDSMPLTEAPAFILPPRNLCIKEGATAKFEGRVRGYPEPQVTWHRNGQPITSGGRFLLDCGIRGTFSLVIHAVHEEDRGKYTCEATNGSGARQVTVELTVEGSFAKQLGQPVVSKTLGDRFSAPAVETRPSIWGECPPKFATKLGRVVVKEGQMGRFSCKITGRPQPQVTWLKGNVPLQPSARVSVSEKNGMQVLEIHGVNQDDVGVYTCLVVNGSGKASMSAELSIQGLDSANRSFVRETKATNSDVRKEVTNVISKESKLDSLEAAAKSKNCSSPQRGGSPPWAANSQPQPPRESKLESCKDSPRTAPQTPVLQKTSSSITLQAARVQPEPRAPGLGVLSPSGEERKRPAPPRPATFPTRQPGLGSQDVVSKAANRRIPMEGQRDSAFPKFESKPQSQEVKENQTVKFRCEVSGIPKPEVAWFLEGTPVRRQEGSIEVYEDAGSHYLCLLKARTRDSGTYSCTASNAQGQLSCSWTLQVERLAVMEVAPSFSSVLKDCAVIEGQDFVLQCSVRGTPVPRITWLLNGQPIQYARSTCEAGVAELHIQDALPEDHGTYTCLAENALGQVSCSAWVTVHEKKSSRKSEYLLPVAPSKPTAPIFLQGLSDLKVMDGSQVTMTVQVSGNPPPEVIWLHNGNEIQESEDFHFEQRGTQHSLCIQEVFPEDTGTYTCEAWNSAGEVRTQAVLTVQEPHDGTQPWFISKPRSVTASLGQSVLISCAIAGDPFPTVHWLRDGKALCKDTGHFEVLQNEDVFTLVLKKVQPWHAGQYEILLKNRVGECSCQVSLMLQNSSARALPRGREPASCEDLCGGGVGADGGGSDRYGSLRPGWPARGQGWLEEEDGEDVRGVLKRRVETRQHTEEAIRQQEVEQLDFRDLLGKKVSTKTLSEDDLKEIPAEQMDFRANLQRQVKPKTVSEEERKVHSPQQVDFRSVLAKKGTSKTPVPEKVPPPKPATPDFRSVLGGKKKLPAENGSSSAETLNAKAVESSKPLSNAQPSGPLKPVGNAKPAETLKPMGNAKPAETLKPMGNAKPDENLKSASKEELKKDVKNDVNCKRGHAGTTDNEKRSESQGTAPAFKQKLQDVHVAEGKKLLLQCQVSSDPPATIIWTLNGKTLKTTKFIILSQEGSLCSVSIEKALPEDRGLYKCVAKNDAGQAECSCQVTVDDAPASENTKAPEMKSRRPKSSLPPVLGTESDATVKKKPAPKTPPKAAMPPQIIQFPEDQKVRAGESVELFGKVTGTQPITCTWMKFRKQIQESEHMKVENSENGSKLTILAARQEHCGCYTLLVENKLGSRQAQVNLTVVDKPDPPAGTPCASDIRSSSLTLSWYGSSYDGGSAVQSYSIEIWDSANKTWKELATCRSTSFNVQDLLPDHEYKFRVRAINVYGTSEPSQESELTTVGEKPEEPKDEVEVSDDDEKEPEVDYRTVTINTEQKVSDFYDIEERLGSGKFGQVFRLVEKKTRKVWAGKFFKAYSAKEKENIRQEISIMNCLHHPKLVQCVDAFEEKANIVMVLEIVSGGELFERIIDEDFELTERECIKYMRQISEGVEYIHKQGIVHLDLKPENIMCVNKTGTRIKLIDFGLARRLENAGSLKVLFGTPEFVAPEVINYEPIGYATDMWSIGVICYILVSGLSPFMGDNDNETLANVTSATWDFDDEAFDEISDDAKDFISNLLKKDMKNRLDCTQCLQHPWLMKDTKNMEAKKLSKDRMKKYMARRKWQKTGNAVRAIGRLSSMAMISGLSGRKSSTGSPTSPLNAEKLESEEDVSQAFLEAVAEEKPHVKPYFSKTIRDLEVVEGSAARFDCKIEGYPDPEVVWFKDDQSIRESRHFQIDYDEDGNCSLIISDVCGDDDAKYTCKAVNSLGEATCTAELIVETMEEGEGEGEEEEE
Chain of UniProt P51813 (whole entry, looked up): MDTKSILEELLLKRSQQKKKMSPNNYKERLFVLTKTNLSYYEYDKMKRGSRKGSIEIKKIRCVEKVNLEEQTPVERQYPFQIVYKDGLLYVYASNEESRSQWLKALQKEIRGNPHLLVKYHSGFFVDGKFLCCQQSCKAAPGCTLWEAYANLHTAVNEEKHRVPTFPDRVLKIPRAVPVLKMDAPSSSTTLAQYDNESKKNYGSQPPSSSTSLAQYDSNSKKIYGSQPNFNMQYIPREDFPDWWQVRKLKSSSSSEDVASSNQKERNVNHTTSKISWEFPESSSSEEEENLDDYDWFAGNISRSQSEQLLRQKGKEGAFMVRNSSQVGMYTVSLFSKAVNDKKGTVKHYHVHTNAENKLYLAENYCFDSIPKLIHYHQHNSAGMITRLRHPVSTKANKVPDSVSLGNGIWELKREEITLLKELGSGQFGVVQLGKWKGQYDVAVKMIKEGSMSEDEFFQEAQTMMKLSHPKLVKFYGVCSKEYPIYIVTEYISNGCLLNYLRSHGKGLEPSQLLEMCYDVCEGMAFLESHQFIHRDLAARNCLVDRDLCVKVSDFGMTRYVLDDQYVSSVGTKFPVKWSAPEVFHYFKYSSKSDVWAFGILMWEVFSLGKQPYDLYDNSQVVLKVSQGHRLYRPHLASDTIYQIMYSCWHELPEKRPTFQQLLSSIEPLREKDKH

Sample 1
Cell line: A-375
Tested at: 100 µM
Time: 18 h
The viability of `C/C(=C(\CCOP(=O)(O)O)SC(=O)c1ccccc1)N(C=O)Cc1cnc(C)nc1N` is reported as 93.7%.
For `O=C1[C@@H]2[C@H]3CC[C@H](C3)[C@@H]2C(=O)N1C[C@@H]1CCCC[C@H]1CN1CCN(c2nsc3ccccc23)CC1`, the viability was 96.7%.
The viability of `CCN(CC)CCNC(=O)c1cc(Br)c(N)cc1OC` is reported as 90.2%.
The viability of `CC[C@]1(O)C[C@@H]2CN(CCc3c([nH]c4ccccc34)[C@@](C(=O)OC)(c3cc4c(cc3OC)N(C)[C@H]3[C@@](O)(C(=O)OC)[C@H](OC(C)=O)[C@]5(CC)C=CCN6CC[C@]43[C@@H]65)C2)C1` is reported as 22%.

Sample 2
Target: MAP kinase-activated protein kinase 2 (MAPKAPK2, Homo sapiens, UniProt P49137)
Chain of UniProt P49137 (whole entry, looked up): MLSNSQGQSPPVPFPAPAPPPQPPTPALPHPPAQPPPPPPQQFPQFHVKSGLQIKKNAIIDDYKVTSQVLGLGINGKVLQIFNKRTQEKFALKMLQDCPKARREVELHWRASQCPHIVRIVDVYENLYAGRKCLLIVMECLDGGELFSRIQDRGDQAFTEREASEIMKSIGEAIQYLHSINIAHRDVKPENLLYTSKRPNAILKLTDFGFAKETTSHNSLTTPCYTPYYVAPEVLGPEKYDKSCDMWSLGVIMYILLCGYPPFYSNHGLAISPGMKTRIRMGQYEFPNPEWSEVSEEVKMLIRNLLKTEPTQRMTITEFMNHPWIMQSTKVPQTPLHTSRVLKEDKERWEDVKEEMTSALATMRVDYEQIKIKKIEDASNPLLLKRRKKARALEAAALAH
Effect on: enzyme activity
Action: inhibitor
Tested at: 0.5 µM
Reference: control
`NCCNc1ncc(C(N)=O)c(Nc2cccc(C(F)(F)F)c2)n1` gave a remaining activity of 99.2%.
With `CCOC(=O)c1c(C)[nH]c(/C=C2\C(=O)Nc3ccccc32)c1C` the remaining activity was 98.6%.
The remaining activity of `N#CC(C#N)=C(N)/C(C#N)=C/c1ccc(O)cc1` is reported as 91.3%.
`COc1ccc(CNC(=O)Nc2ncc([N+](=O)[O-])s2)cc1` has a remaining activity of 112%.
For `Nc1[nH]nc2nc3ccccc3nc12`, the remaining activity was 105%.
With `O=C1NC(=O)C(c2cn(CCCn3ccnc3)c3ccccc23)=C1Nc1ccccc1` the remaining activity was 102%.
`COc1ccc(OC)c2c(=S)c3ccccc3[nH]c12` has a remaining activity of 94.6%.
`O=C(CCCc1ccc(-c2ccccc2F)cc1)Nc1ccc(O)cc1` gave a remaining activity of 103%.
`Cc1cccc(-c2[nH]c(C(C)(C)C)nc2-c2ccc3c(c2)OCO3)n1` has a remaining activity of 103%.
`Cn1c2ccccc2c2c3c(c4c5ccccc5n(CCC#N)c4c21)CNC3=O` gave a remaining activity of 109%.
For `CC(C)[C@H](CO)Nc1nc(Nc2cc(N)cc(Cl)c2)c2ncn(C(C)C)c2n1`, the remaining activity was 92.8%.
`Nc1ncnc2n[nH]c(Nc3ccc(F)cc3)c12` gave a remaining activity of 105%.
For `Cc1ccc(Nc2nccc(N(C)c3ccc4c(C)n(C)nc4c3)n2)cc1S(N)(=O)=O`, the remaining activity was 99.6%.

Sample 3
SMILES: COc1ccc(-c2c(Nc3ccccn3)[nH]c3c(C4=CCCCC4)c(-c4ccccc4)nn3c2=O)cc1
Medium: plasma
Route: oral
The “plasma concentration, geometric mean” was 227 ng/mL (cancer patients; 50 mg, 2 h post-dose, single dose).
The “plasma concentration, geometric mean” was 3070 ng/mL (human patients; 100 mg once daily, 4 h, cycle 1).
For human patients; 400 mg once daily, 8 h, cycle 1: “plasma concentration, geometric mean” read 2700 ng/mL.
LC-MS/MS; human; 50 mg once daily, 0 h, cycle 1 — “plasma concentration, geometric mean”: 1070 ng/mL.

Sample 4
Structure (SMILES): C[C@@H]1CN(c2cc(-c3n[nH]c4ccc(OC5(C)CC5)cc34)ncn2)C[C@H](C)O1
Effect on: cell-free assay
Technique: competition with immobilised ligand
Tested at: 0.1 µM
Tyrosine-protein kinase ABL1, non-phosphorylated (ABL1, Homo sapiens, UniProt P00519, T315I) — remaining binding: 72%.
KIT (Homo sapiens, UniProt P10721, L576P) — remaining binding: 100%.
The remaining binding was 80% (BMX (Homo sapiens, UniProt P51813)).
The remaining binding was 71% (MAP2K3 (Homo sapiens, UniProt P46734)).
For MYLK (Homo sapiens, UniProt Q15746): remaining binding read 56%.
MAPK6 (Homo sapiens, UniProt Q16659) — remaining binding: 91%.

Further values, each from its own experiment
For `CC(C)n1cnc(-c2ccc(F)cc2)c1-c1ncc(C(=O)Nc2ccc(N3CCN(C)CC3)cc2)[nH]1`, “patients with AST increase” read 0% (phase 2a clinical trial; patients with idiopathic pulmonary fibrosis; 30 mg once daily, with: standard of care).

Some of these lines once more (sample 4):
The remaining binding was 71% (MAP2K3 (Homo sapiens, UniProt P46734)).
For MYLK (Homo sapiens, UniProt Q15746): remaining binding read 56%.
MAPK6 (Homo sapiens, UniProt Q16659) — remaining binding: 91%.
